Experimental data gathered from unrelated publications.
Each numbered part is a random draw from the data of one study; scales do not carry over between parts.

Series 1 — technique: aptamer microarray, sandwich; form: DNA with 2'F-ANA; medium: in vitro; concentration: 200 nM; added: Cy3 exosite-II aptamer, 400 nM; reading: higher = stronger binding
Target: Prothrombin, mature alpha-thrombin (F2, Homo sapiens, UniProt P00734)
Notes: whole 15-mer aptamer, many near background
Sequence | mean fluorescence intensity [a.u.]
GGTTGGTGTGGTTGG (2'F-ANA at 2 3 4 5 8 9 12 13 14) | 52.1
GGTTGGTGTGGTTGG (2'F-ANA at 3 6 9 10 11 14 15) | 341
GGTTGGTGTGGTTGG (2'F-ANA at 1 11 14) | 73
GGTTGGTGTGGTTGG (2'F-ANA at 1 2 4 6 7 10 11 14) | 51.2

Series 2 — technique: RNA Bind-n-Seq; form: RNA; medium: in vitro; concentration: 365 nM; reference: no-protein control; reading: higher = stronger binding
Target: RNA binding protein fox-1 homolog 2, RRM domain, GST-SBP tag (RBFOX2, Homo sapiens, UniProt O43251-10, residues 100-194)
Notes: natural RNA segment, single round, ends assumed
Target sequence (chain): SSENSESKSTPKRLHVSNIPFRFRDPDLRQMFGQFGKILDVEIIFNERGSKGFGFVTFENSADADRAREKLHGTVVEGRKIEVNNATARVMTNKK
Sequence | RBNS enrichment (R)
GGGAGUUCUACAGUCCGACGAUCAAACUUUUAAUUAAGUUUUGUUUAUAAUAAAAAUAUAAAUGGAUUUGAAAGUUUCCAUUUUUUAAAGUUACCCUCGUUUUCAAAGGUAUUUUCUAAACAGAUCUUUAAUGUGGAAUUCUCGGGUGCCAA | 0.654
GGGAGUUCUACAGUCCGACGAUCUUAUUCGUGAAAGGAAGAGCAGUUGUUAUUUAUUGUGAGGUCUCUUGCUUGUAAAGUAAAAGCUUUUUUUCCUUGUAAACCAUUUAAGUCCAUUCCUUACUAUUCACUCAUGGAAUUCUCGGGUGCCAA | 0.355
GGGAGUUCUACAGUCCGACGAUCUGAGCUGCCUUAAGGGGAAGAGUGCCAAUGGUCUUCGUGGACUUCAGAAGUGACUUUGAGACUGUUCCUGCUGACCUUUUGAGAUAGUCACUUAAGGAAGGAUGGCUCUCUGGAAUUCUCGGGUGCCAA | 0.391
GGGAGUUCUACAGUCCGACGAUCUCCGCGCCCAUUGGUGACCCUUCCAGGCAGACAGCCUCAGCAGCGCCCCUGGUGGACAGGAUGGUUCGGCAAAGCAGCCUGAGUUAUUUUUGUGGACGGAAUCGGAACACUGGAAUUCUCGGGUGCCAA | 0.231

Series 3 — technique: protein binding microarray; form: double-stranded DNA, one strand shown; medium: in vitro; concentration: not given; reference: not given; reading: higher = stronger binding
Target: Histone acetyltransferase KAT6A, both winged helices, GST fusion (KAT6A, Homo sapiens, UniProt Q92794, residues 1-181)
Notes: 8-mer, flanks averaged, mean of 2 arrays, mostly near background
Target sequence (chain): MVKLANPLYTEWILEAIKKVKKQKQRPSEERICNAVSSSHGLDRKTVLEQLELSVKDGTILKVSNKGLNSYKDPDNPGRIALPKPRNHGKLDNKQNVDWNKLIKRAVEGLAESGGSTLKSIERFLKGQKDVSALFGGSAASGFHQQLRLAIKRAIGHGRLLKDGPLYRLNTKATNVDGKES
Sequence | E-score
TCTTCTCA | -0.0335
AATTGTAT | -0.116
CACATTGA | 0.0451
AACCCCGC | 0.232
ACGCCACG | 0.168
ATTAAGCA | -0.162

Other studies, line by line
Molecule | target | assay | test system | setting | scale | measurement | result
PhoQ, residues 284 288 289 292 302 303 AMDMFI | PhoP, residues 12 14 15 18 19 SQCLL (Escherichia coli, UniProt P23836) | Sort-seq, measured: YFP reporter | E. coli | PhoQ-PhoP variant library, added: 10 µM Mg2+ | reference: high Mg2+ state, higher = stronger signaling | fold induction | 1.87

Repeated from above (series 2):
Sequence | RBNS enrichment (R)
GGGAGUUCUACAGUCCGACGAUCUCCGCGCCCAUUGGUGACCCUUCCAGGCAGACAGCCUCAGCAGCGCCCCUGGUGGACAGGAUGGUUCGGCAAAGCAGCCUGAGUUAUUUUUGUGGACGGAAUCGGAACACUGGAAUUCUCGGGUGCCAA | 0.231
